Experimental data of several laboratories.
Every numbered part comes from another study and shows a few of its results, in no order. “And” joins repeats or separate records; there may be more than shown. Changes are numbered by the printed parent chain.

Series 1
Target: Ras GTPase-activating protein-binding protein 1, RRM domain (G3BP1, Homo sapiens, UniProt Q13283)
UniProt Q13283, sequence (whole entry, looked up): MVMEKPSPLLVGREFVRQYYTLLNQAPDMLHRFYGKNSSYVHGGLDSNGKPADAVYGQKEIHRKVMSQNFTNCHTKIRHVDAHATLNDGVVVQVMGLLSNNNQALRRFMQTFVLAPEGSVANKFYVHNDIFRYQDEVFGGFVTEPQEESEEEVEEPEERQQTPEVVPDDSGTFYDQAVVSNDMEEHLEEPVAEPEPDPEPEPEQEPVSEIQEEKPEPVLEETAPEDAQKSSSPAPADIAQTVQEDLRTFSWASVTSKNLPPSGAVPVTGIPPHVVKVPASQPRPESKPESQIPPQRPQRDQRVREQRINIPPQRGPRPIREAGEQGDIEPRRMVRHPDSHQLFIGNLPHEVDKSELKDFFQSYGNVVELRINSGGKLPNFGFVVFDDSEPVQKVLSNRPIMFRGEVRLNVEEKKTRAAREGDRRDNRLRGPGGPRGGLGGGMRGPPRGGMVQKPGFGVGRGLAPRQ
Method: RNA Bind-n-Seq
Molecule type: RNA
Medium: in vitro
Tested at: 1 µM
Setting: whole 134-nt RNA, ends assumed
Together with: 150 mM KCl
Baseline: input library
Reading: higher = stronger binding
`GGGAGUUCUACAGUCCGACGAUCCCUCAAGUCCUGUGCUACACAUCGUAUGUACCGAAUCGGGGAGGGAGGGGAGGAAAGUAUUAUGUUACGCCGUUCGGAUCUGCACUUCCAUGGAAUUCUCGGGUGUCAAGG` gave a log2 enrichment of 0.0738.
For `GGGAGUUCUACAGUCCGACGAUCCUCAAGUCCUGUGCUACACAUCGUAUGUACCGAAUCGGAAAGGAAAGGAAAGGGAAAGUAUUAUGUUACGCCGUUCGGAUCUGCACUUCCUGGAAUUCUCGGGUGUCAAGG`, the log2 enrichment was -0.184.
`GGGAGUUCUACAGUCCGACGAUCCAAGUCCUGUGCUACACAUCGUAUGUACCGAAUCAAACCCAAAUUUAAAUUUAAAAAAGUAUUAUGUUACGCCGUUCGGAUCUGCACUUCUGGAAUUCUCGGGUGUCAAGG` gave a log2 enrichment of -0.285.
With `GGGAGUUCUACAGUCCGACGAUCAGUCCUGUGCUACACAUCGUAUGUACCGAAUCGGGCCCCCGGCCCCCGGGCCCCCGGGAAAGUAUUAUGUUACGCCGUUCGGAUCUGCACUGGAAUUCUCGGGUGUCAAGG` the log2 enrichment was -0.712.
`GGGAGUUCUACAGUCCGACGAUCCGCUAAAGAGGAGCACGGUGGACUGAUGUGAGCUUCUCUUCCUGCCCCUUCCUCCCUGAUGUCCACUCCCUUCACCUUCCUCACGCCCGUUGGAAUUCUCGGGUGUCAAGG` gave a log2 enrichment of -0.295.
With `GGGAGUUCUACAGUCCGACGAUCCAAGUCCUGUGCUACACAUCGUAUGUACCGAAUCGGUUUUGGGGUUUUGGUUUUGGAAAGUAUUAUGUUACGCCGUUCGGAUCUGCACUUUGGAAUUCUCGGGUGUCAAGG` the log2 enrichment was -0.287.
For `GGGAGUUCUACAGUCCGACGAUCCCUCAAGUCCUGUGCUACACAUCGUAUGUACCGAAUCGGAGGUGGAAAAAGGAAAGUAUUAUGUUACGCCGUUCGGAUCUGCACUUCCAGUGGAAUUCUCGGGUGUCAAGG`, the log2 enrichment was -0.146.
The log2 enrichment of `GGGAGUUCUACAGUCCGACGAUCACCAUGCAGGUGGGCAUCUUUGGGAAGUGGGGCAAGGGGGGGAUAGGGAGGGGGGUAACACUUUGGGAACAGCUGGUCCCAGGUCGUUUCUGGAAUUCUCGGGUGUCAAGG` is reported as 0.928.
`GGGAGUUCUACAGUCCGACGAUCUCAAGUCCUGUGCUACACAUCGUAUGUACCGAAUCGGGUUUGGGUUUGGUUUGGAAAGUAUUAUGUUACGCCGUUCGGAUCUGCACUUCCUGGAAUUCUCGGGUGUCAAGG` has a log2 enrichment of -0.267.
For `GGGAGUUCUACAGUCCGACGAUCUAACUUUAGAGGAGGACCUGAUGGAUAUGGCAGUGGACGUGGAUUUGGGGAUGGCUAUAAUGGGUAUGGAGGAGGACCUGGAGGUGGCAAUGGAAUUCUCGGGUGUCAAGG`, the log2 enrichment was -0.787.

Series 2
Target: CCNA1, cyclin fold, Cln2 fusion (human)
Method: yeast growth competition, sequencing
Medium: yeast
Setting: weak parent motif
Baseline: not given
Reading: higher = stronger binding
Starting sequence: CDC25A docking peptide (human); PPHRRRLLFACSP
Under “normalised enrichment score”, `L8K` is recorded as 0.508.
Under “normalised enrichment score”, `P2Q` is recorded as 0.441.
Under “normalised enrichment score”, `H3F` is recorded as 0.51.
Under “normalised enrichment score”, `R5W` is recorded as 0.0214.
Under “normalised enrichment score”, `C11T` is recorded as 0.176.
`L7G`: “normalised enrichment score” 0.104.
`P1G` — result for “normalised enrichment score”: 0.0572.

Series 3
Target: Sal-like protein 4, full length isoform B (SALL4, Homo sapiens, UniProt Q9UJQ4-2, residues 1-616)
Method: universal PBM
Molecule type: double-stranded DNA, one strand shown
Medium: in vitro
Tested at: not given
Setting: 8-mer, flanks averaged, mean of replicates
Reading: higher = stronger binding
For `GGGAGACC`, the E-score was -0.351.
`AAACATTT` has an E-score of 0.327.
For `GGCCTGAC`, the E-score was -0.266.
For `AGGTGTGA`, the E-score was -0.0429.
For `ACCTACCT`, the E-score was -0.0588.
For `GTCCCTTA`, the E-score was -0.0473.
`TACGGTGA` gave an E-score of 0.122.
With `CTCATAAC` the E-score was 0.25.
`GCGTCTAC` has an E-score of -0.231.
`ACCGGACG` gave an E-score of -0.213.
`AACGCATA` has an E-score of 0.177.
`ATGTTTAC` gave an E-score of 0.139.

Single results of other studies
For `PhoQ, residues 284 288 289 292 302 303 AGHLVA`, the fold induction was 5.61 and 2.67 (PhoP, residues 12 14 15 18 19 LWHSL (Escherichia coli, UniProt P23836); Sort-seq, measured: YFP reporter; E. coli; PhoQ-PhoP variant library, together with: 10 µM Mg2+; baseline: high Mg2+ state, higher = stronger signaling).

A few entries again (single results of other studies):
For `PhoQ, residues 284 288 289 292 302 303 AGHLVA`, the fold induction was 5.61 and 2.67 (PhoP, residues 12 14 15 18 19 LWHSL (Escherichia coli, UniProt P23836); Sort-seq, measured: YFP reporter; E. coli; PhoQ-PhoP variant library, together with: 10 µM Mg2+; baseline: high Mg2+ state, higher = stronger signaling).
